Experimental data from different studies.
A part holds a random share of what one study measured. Changes are numbered by the printed parent chain.

Study 1
Target: RING finger protein unkempt homolog, zinc fingers 1-6, SBP tag (UNK, Homo sapiens, UniProt Q9C0B0, residues 30-357)
Chain of UniProt Q9C0B0 (30-357, looked up): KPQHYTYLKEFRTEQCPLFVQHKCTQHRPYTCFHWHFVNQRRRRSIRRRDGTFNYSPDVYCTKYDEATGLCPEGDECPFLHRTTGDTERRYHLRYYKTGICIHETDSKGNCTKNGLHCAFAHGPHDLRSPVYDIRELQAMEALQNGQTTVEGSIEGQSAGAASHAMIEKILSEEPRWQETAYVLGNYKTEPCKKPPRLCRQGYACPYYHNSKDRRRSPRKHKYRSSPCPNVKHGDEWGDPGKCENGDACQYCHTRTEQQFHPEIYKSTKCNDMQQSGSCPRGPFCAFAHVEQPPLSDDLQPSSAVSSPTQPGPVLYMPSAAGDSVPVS
Technique: RNA Bind-n-Seq
Molecule type: RNA
Sample: in vitro
Tested at: 100 nM
Setting: RNA with constant flanks, vertebrate orthologous sites, ends assumed
Baseline: input RNA pool
Direction: higher = stronger binding
All sequences stand within: GGGAGUUCUACAGUCCGACGAUC … CAACAGAGGAUUGAGCAUCA
Strand | bound/input enrichment
UCUCAUUCCAGGUUGGACCUAGUGGGAAAGUCAUAGGAAUUGACCACAUUAAAGAGCUAGUAGAUGACUCAAUAAAUAAUGUCAGAAAGGAUGAUCCAAUGCUUUUGUCUUCAGGGAGGG | 0.902 ratio
UCCUAUGUAGCAAUUAGAUCCCCGCCCCCACUAUUUCAUGCAGGAAAAGAAAUAUCCAAAUAGAUUCCUCACCCAUCUGAUUAUACUGCUCUGAGUUUACUGUCUAUUACUUUUUACAUA | 3.79 ratio
UGCCUGUAGGAUGAAGCUCUUACAUCAGGUGUCACGAGUCUGGAGGAAAGAUGGAUUGAGUAGUUGCUCAUAUAAAUUACUCUCAGUGAUUUACAACCCUUUAUAUAUCAACAUCACAGU | 0.386 ratio
CUCUAGAUCUUAACAACCGACGCUCCUAAAAGAUUUAGAAAAAAAGUUUACAACAUAAUCUAGUUUACGAAGAAGUCUUGUGCUAGAAUACUUUUUAAAAAGUAUUUUUGAAUACCAUUA | 0.51 ratio
UCCCGAACUUCUGGCUUUCAAGCCGCCCGCGGCUGUUUUAGAUACUGGUCUUGUUUCCUUGACGAUGCUUCCCUGUCUGCCGCCUCCUCUUCCCCUGUUGCCGAGGUUUGACUCGUGGAU | 0.51 ratio
UGUGUGUUGGUGCAGAGUGCUCUGUACCAGUGCUCAUCAUCCCUUCAUACCAACUGUCUCUAGCUAUAGGAAUUUGAUAUUUUUAAAAGUUUUACAUUGCUGUAUAUUCAAAGAUUUGUU | 0.542 ratio
CAACUCAAUGGUUGAGGGUUCAGAGCUCAAAAAGGUUCGCUCCAACUCUAGAAUUUACCAUAGGUAUUUUUUAUUGGAUGCCGACAUGCAGAGCCUGAGGUGGGAACCAUCAAAGAAGGA | 0.265 ratio
ACAUUCAGUGUGGUGCGUGUACUCUGCCAGUGCUCAUCAUCCCUCUUCAUGCCACUGUCCUUAGUUACACGAAUUUCAUAUUUUUAAAAGUUUUACAAUGCUGUAUAUUCAAAGAUUUGU | 0.698 ratio
CCCUCUGAACCCCAUAUCUUCUGUUUCAUAGUGCAGAAGUAUUCUUUUCAAUUGUAUUAUUAGUGGACUUCUUUAAUUUUAGAGAAACGUUCAGUACAGAUACUGUGACCUUACAUGGAA | 0.869 ratio
UGUACUACAAAAAAAAAUCAUCCUAGUUUUAAGCUAACUACAGUGAUAACUAGUCUGUGCUAGUGGAAUAAUUUAUUAUUACUUUUUAAAUUACCUGCUCUGUCUGAUACCUGCAACCAC | 0.859 ratio
UUGCUUUGUACAGGGCCUUCUCUGUGCUAACUUGUUGUGGUUAUAAAGCAAUUAGCAAAACAGCUUACAUUUGUAUUUAUUUUCUAUUCCAUACCUCUCUGCCCCAUGUGUUUUCUCUUC | 0.78 ratio

Study 2
Target: Phosphate system positive regulatory protein PHO4, full length, GST-tagged (PHO4, Saccharomyces cerevisiae, UniProt P07270, residues 1-312)
Technique: competition protein-binding microarray
Molecule type: double-stranded DNA, one strand shown
Sample: in vitro
Tested at: 2 µM
Setting: whole 60-bp probe, lowest competitor level
Added: Cbf1 competitor, 0.05 µM
Direction: higher = stronger binding
All sequences stand within: … GTCTTGATTCGCTTGACGCTGCTG
Construct (chain): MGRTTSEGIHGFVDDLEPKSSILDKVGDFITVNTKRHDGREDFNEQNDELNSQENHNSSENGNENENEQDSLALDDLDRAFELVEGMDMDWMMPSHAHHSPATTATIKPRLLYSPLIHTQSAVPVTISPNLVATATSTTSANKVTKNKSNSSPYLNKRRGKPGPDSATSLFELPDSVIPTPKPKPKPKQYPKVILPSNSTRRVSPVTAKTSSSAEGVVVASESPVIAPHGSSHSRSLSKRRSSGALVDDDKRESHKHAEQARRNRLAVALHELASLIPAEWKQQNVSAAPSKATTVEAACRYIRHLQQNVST
Strand | fluorescence intensity [a.u.]
TCTTGAAGGAAACGTCACCTGCGCTTGCCGATGTCT | 3920
AGAAACGGCATCTCTCACCTGATTGTTCTCAAGATT | 3110
TCCAGAATATAATAATATCGTATGGACCATCTCGCT | 3320
GCCAAGATGATTGAAAACATGACAAAGGAGAAAGTC | 4220
AAATTACTAAGTTTTCACGTGCGCTACCCCGTATGA | 17100
TGCGCAACAACTTGATATGTGGGTGTATGTCTAGAA | 4580
GAGAGGACAAGGGATGACATGGCCGACGTTATAAGG | 3650
GACTTGACAGAGTGGCACGAGGCTCTGCCCATCTGT | 12100
AAATTACTAAGTTGGGCGGTGGGTGACGCCGTATGA | 4520
TACTGCATAAATGTTTGTTAGTGTCAATGAGCTTGA | 3640
CTCTCCATTCATTCACACGTCATACATGGCTAACTG | 6400
CGTCCTAGTGATTGTAGTGTGGGTGCCATGAGGAAG | 7940
GGGTACCCAATTCGTCACGTTTCACGAATTCTCGGG | 11400
CATTTAAAGCTAATGAAATGTACCTCTCGCTTCATT | 3490
CTTCTGTAAATTTGATAAGTGGGTGGACGCGCCCCG | 4130
CATCTAAAAGCATTACGCATGCCCTATAACTGGTAA | 9330
GTCTTGTCTCATTGATGCGTGGGTGTCCCCACTTCA | 8780
GTCTTGTCTCATTGACAAGTGGGTGTCCCCACTTCA | 4300
AGTTACCCAGCCGCCCTCGTGCTTTGTAGTGCCATC | 14800

Study 3
Target: Histone acetyltransferase KAT6A, both winged helices, GST fusion (KAT6A, Homo sapiens, UniProt Q92794, residues 1-181)
Technique: protein binding microarray
Molecule type: double-stranded DNA, one strand shown
Sample: in vitro
Tested at: not given
Setting: 8-mer, flanks averaged, mean of 2 arrays, mostly near background
Baseline: not given
Direction: higher = stronger binding
Target sequence (chain): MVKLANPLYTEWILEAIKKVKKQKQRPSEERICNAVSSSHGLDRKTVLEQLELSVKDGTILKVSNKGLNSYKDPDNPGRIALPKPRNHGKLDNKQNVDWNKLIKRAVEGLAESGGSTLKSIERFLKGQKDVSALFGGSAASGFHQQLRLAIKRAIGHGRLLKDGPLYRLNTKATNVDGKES
Strand | E-score
GAAGGAAC | 0.0925
CCGCAAGG | 0.137
CACCGCCA | -0.0736
CGTATAAC | 0.22
GCATGAGC | 0.0372
CGCGCAGA | 0.338
CTGACAGA | -0.155
TAAGCTGA | -0.0394
ATTGGACA | -0.0848
AGCTCCTA | -0.25
CGATCACG | 0.236
AAGCTGAT | -0.175
ATTCTAGG | -0.0794
AACATACG | 0.182
AATGCGGA | 0.123
GTCAGATA | -0.0926
GCATTAGA | 0.0227
ACCGGTTG | 0.0843
TCGTATAA | -0.0267
GCAACCGC | 0.195
ATAGACCC | 0.0195
TATGGAGA | -0.209
CTTGCCTA | -0.276
GCAGTTAA | 0.0423
GCGAAATA | 0.0112

Study 4
Target: ATP-dependent RNA helicase DDX3X, helicase core (DDX3X, Homo sapiens, UniProt O00571, residues 132-607)
Chain of UniProt O00571 (132-607, looked up): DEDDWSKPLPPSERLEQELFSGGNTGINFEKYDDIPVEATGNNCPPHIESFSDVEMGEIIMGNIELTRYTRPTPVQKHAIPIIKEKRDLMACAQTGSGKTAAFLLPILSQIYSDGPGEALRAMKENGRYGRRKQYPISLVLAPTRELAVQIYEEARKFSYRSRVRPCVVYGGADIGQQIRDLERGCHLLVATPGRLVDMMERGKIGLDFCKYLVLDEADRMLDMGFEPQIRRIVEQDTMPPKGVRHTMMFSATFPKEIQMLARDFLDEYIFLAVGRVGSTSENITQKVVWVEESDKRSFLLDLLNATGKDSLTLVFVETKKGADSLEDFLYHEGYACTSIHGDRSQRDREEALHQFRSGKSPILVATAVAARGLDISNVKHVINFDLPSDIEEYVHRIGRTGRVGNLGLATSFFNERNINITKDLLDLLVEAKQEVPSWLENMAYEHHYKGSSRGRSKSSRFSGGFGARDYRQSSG
Technique: RNA Bind-n-Seq
Molecule type: RNA
Sample: in vitro
Tested at: not given
Setting: 4-mer, random 30-nt RNA, single round
Added: RocA, ADP, phosphate
Baseline: input library
Direction: higher = stronger binding
Strand | 4-mer enrichment
UCAG | 0.811 fold
GCUA | 0.733 fold
GACU | 0.715 fold
GUCA | 0.842 fold
GUAU | 1.03 fold
CGUG | 1.03 fold
CCUA | 0.71 fold
AUGG | 1.07 fold
AGGC | 0.897 fold
ACAA | 0.819 fold
AAUA | 1.02 fold
CACG | 0.737 fold
GUAC | 0.773 fold
CUUC | 0.646 fold
CUUG | 0.843 fold
CUGA | 0.952 fold
AAUC | 0.775 fold
AGGA | 2.12 fold

Study 5
Target: ABI1, truncated, D143A, DHFR fusion (Arabidopsis thaliana)
Technique: DHFR PCA, deep sequencing
Sample: yeast
Setting: methotrexate growth selection, single substitutions
Added: (+)-ABA 710 µM
Baseline: wild-type fitted maximum
Direction: higher = stronger binding
Starting sequence: PYL1, truncated, DHFR fusion (Arabidopsis thaliana); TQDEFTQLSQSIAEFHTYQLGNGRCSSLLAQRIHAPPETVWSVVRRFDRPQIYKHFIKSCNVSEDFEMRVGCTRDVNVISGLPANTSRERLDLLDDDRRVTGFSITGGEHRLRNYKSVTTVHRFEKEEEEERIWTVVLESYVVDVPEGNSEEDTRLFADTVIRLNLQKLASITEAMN; partner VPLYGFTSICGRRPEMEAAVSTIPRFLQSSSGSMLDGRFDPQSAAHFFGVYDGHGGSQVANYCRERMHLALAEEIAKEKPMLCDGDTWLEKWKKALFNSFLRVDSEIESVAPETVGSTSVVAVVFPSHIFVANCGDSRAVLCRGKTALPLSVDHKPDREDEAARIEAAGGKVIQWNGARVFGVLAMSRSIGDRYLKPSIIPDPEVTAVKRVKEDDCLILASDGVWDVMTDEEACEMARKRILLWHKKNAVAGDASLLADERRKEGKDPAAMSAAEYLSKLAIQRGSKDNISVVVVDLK
Change | relative binding score [%]
D92E | 98.7
I12K | 90.8
I79M | 99.6
R163V | 64.1
F5K | 105
V118S | 77
F15C | 86.1
V100G | 52.8
M68K | 90.6
R90M | 90
M68W | 91.1
M68P | 97.1
R132I | 109
W41C | -1.38
T101V | 107
H16A | 30.2
T73V | 104
N22G | 101
G108L | 26.5
S59M | 95.9
R24E | 98.8
Q167L | 98.2
L94Y | 105
R88L | 103
E131S | 110

Excerpt of the above (study 3):
Strand | E-score
CTTGCCTA | -0.276
GCATTAGA | 0.0227
GCAACCGC | 0.195
AACATACG | 0.182
CTGACAGA | -0.155
CGATCACG | 0.236
CCGCAAGG | 0.137
TCGTATAA | -0.0267
ACCGGTTG | 0.0843
CACCGCCA | -0.0736
GAAGGAAC | 0.0925
CGCGCAGA | 0.338
AAGCTGAT | -0.175
ATTCTAGG | -0.0794
